Published values collected from several papers.
Numbered parts are unrelated; each lists some results of a single study. Substitutions count along the parent as printed.

Series 1 — technique: protein-binding microarray; molecule type: double-stranded DNA, one strand shown; matrix: in vitro; concentration: 2200 nM top; setting: 60-bp whole probe; with: salmon DNA 0.4 mg/ml; reference: random background probes; direction: higher = stronger binding; constant ends, left off below: GCCTAGCAC … GTCTTGATTCGCTTGACGCTGCTG
Target: Interferon regulatory factor 7, full length, phosphomimetic (IRF7, Homo sapiens, UniProt Q92985, residues 1-503, S471D/S472D/S475D/S476D/S477D/S483D/S484D/S487D)
Target sequence (chain): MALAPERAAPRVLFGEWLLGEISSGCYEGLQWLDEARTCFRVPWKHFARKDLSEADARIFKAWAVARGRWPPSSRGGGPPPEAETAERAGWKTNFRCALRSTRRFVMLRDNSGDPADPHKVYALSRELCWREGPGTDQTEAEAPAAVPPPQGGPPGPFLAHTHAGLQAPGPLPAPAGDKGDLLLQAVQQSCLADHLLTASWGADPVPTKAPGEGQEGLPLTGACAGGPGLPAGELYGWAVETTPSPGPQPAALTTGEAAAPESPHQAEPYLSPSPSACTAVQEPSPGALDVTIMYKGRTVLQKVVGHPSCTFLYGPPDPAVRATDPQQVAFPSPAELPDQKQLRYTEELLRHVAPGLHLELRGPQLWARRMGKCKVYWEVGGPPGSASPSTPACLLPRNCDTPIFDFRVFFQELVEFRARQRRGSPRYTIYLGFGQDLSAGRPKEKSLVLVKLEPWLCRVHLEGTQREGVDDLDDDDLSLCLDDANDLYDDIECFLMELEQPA
| Sequence | fitted relative affinity [z-score] |
| --- | --- |
| GACGGTTTCGGGACTGGGGAAGTGCTA | 3.82 |
| GACGGTTTCGGGACTGGGGGCGTGCTA | 3.85 |
| GACGGTCTGCTTATCCTGACGTGCTAG | 0.662 |
| GACAGTTTCGGACTGGGGACGTGCTAG | 4.5 |
| GACGATTTCGCGACTGGAGACGTGCTA | 0.994 |
| TACGATATCAGTCTCGAGACGTGCTAG | 0.576 |
| AGGGTCTTCAGGTTCTCCCCGTGCTAG | 0.0749 |
| TTAGTTTTCGGTTTCGGTTAGTGCTAG | 17.2 |
| GCGATCCTCTCACCTCAGCCTGTGCTA | 1.4 |
| TTGTTTTTCATTATTGTCTCGTGCTAG | 2.74 |
| TCACCTCCCTGTTTCCAACTGTGCTAG | 2.87 |
| GTAGAACTGAGACTGGATTAGTGCTAG | -0.387 |
| TTAGGTTGCCTTCTCCTTTAGTGCTAG | 0.998 |
| TTAGGACTGGGTGTCGGTTAGTGCTAG | -0.326 |
| TGACAGCAGGAACATGGGCTGTGCTAG | -0.805 |
| TTAGGTATCGGTATCGATTAGTGCTAG | 0.595 |
| TTAGAACTGGGTTTTCGATTAGTGCTA | 2.44 |
| TAAGGTTTCCAATCAGCCCCGTGCTAG | 1.31 |

Series 2 — technique: aptamer microarray, sandwich; molecule type: DNA with 2'F-ANA; matrix: in vitro; concentration: 200 nM; with: Cy3 exosite-II aptamer, 400 nM; direction: higher = stronger binding; sequence: GGTTGGTGTGGTTGG
Target: Prothrombin, mature alpha-thrombin (F2, Homo sapiens, UniProt P00734)
Setting: whole 15-mer aptamer, many near background
| Modification | mean fluorescence intensity [a.u.] |
| --- | --- |
| 2'F-ANA at 6 11 14 | 185 |
| 2'F-ANA at 3 4 5 8 9 11 13 14 | 57.3 |
| 2'F-ANA at 2 3 8 9 12 13 | 971 |
| 2'F-ANA at 2 5 6 7 9 11 12 15 | 128 |
| 2'F-ANA at 2 6 7 9 12 14 15 | 155 |
| 2'F-ANA at 1 4 5 6 7 8 9 10 11 | 55.2 |
| 2'F-ANA at 3 4 5 7 12 13 15 | 126 |
| 2'F-ANA at 6 9 11 14 15 | 133 |
| 2'F-ANA at 1 2 3 6 9 10 12 13 14 15 | 55.9 |
| 2'F-ANA at 2 3 4 7 10 11 14 | 184 |
| 2'F-ANA at 4 6 9 11 14 15 | 68.3 |
| 2'F-ANA at 1 5 8 10 12 | 44.6 |
| 2'F-ANA at 1 2 5 7 11 12 13 15 | 63.2 |
| 2'F-ANA at 4 5 13 14 | 43.4 |
| 2'F-ANA at 3 5 9 11 12 13 14 15 | 60.8 |
| 2'F-ANA at 2 4 5 6 8 12 14 | 73.4 |
| 2'F-ANA at 9 11 15 | 431 |
| 2'F-ANA at 4 5 7 8 10 12 13 15 | 46.9 |
| 2'F-ANA at 2 3 5 7 10 11 12 | 61 |
| 2'F-ANA at 1 5 6 7 8 10 11 12 13 15 | 51.9 |
| 2'F-ANA at 1 2 3 6 8 10 12 13 | 74.3 |

Series 3 — technique: RNA Bind-n-Seq; molecule type: RNA; matrix: in vitro; concentration: 365 nM; reference: no-protein control; direction: higher = stronger binding
Target: RNA binding protein fox-1 homolog 2, RRM domain, GST-SBP tag (RBFOX2, Homo sapiens, UniProt O43251-10, residues 100-194)
Setting: natural RNA segment, single round, ends assumed
Constant ends, left off below: GGGAGUUCUACAGUCCGACGAUC … UGGAAUUCUCGGGUGCCAA
Target sequence (chain): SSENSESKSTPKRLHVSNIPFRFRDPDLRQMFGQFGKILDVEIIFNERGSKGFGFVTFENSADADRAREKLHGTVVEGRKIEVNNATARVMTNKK
| Sequence | RBNS enrichment (R) |
| --- | --- |
| CUAGAUUUCUGUGUACACACACUUGAUUGUUCUGGAUGAAUGUCUUUUUUAAUACUCCGAAAAUUUCAUCAUCUAAGAAAAUGAUUCCAUACAAAUAACUCAGCACACAA | 1.09 |
| AAUAUGCAAUGCUAGACAAAGAUUUUCAAAAUAAAAAGCUAUUAUUUCAGAAAUUAUUUUAAAAGAUGCAUAGUAAAACAGUGUUUUCCUAUGGUAAGCAAAUAAGAAUG | 0.392 |
| GCAAGGCUGCUGGUCACUUGAAGCUUUACUCUACAAAUGGGAUAUGAAAUGUGUCCACAUUCCUCUUGAGUCUUUUGAUGCAGACAAAGAAGAUAUAGCAGAAUCUACCC | 0.477 |
| CGGCCAGGAUGGCUGAGGGCGGAGUCUAUUUUACGCGUCGCCCAAUGACAGGACCUGGAAUGUACUGGCUGGGGUAGGCCUCAGUGAGUCGGCCGGUCAGGGCCCGCAGC | 0.947 |
| UUUCAAGUAGCCAAUUUUGCCUUUUUAUGUAUUUUUACAUAGUUUCCUCUUCAAGAAAAAAAAAGCAGAGUUUUUUUGCUUUUCAACUCUAUUUUGUUCUUAAAUAAGCA | 1.85 |
| AUAAGUCUCACGAGAUCUGAUGGUUUAAUAAGGGGUUUCCCCUUUUGCUUGGCUCUCAUUCUCUCUUGUCUGCUGCCAUGUAAGAUGUGCCUUUUGCCUUCCACCAUGAU | 0.358 |
| CCUAAUCUGAUCUAAGAAGCUGCUGUAGAGUCAGAAGUAGCUUCUGUGUGAAACUUAUAUUUGUAUGUAGCUUUCUAGGAAAAUUUUACAGACACUUAAAGUAUUUAUGC | 0.943 |
| CAAUGGAUGUGGUUGUCAAUGUGAAUAGCUUAGAGUACUACAAAGGGUAAGCUAACUGAAUGCCUUGAAAAUAUUAUCCACUGGUCGGUCAUAUGGGAGACUUGUUUCAG | 0.712 |

Series 4 — target: CEBPA, bZIP domain (human); technique: DHFR protein complementation; matrix: yeast; reference: wild-type JUN-FOS pair; direction: higher = stronger binding
Setting: single substitutions, most at no-binding floor
Starting sequence: JUN, bZIP domain (human); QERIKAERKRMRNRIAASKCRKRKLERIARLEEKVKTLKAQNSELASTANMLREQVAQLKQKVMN; partner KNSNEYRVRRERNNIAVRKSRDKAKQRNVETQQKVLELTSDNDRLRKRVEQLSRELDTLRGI
| Substitution | binding fitness |
| --- | --- |
| L45I | -1.46 natural log |
| Q55L | -1.38 natural log |
| K36G | -1.44 natural log |
| N42D | -1.49 natural log |
| T37R | -1.41 natural log |
| K39D | -1.34 natural log |
| Q55P | -1.52 natural log |
| E54N | -1.12 natural log |
| N42C | -1.56 natural log |
| S47N | -1.42 natural log |
| Q58R | -1.56 natural log |
| A46S | -1.32 natural log |
| K36L | -1.35 natural log |
| E44C | -1.48 natural log |
| Q55F | -1.6 natural log |
| M51S | -1.44 natural log |
| T37M | -1.39 natural log |
| N42A | -1.39 natural log |
| K39F | -1.53 natural log |
| L38T | -1.45 natural log |
| A49T | -1.46 natural log |
| S43P | -1.51 natural log |
| A57L | -1.49 natural log |
| A57P | -1.52 natural log |
| E44W | -1.37 natural log |

Excerpt of the above (series 4):
| Substitution | binding fitness |
| --- | --- |
| S43P | -1.51 natural log |
| L45I | -1.46 natural log |
| N42A | -1.39 natural log |
| T37M | -1.39 natural log |
| K36G | -1.44 natural log |
| N42D | -1.49 natural log |
| E44C | -1.48 natural log |
| A49T | -1.46 natural log |
